Assay results gathered from unrelated publications.
A part holds a random share of what one study measured.

Study 1
Target: RING finger protein unkempt homolog, zinc fingers 1-6, SBP tag (UNK, Homo sapiens, UniProt Q9C0B0, residues 30-357)
UniProt Q9C0B0, sequence (30-357, looked up): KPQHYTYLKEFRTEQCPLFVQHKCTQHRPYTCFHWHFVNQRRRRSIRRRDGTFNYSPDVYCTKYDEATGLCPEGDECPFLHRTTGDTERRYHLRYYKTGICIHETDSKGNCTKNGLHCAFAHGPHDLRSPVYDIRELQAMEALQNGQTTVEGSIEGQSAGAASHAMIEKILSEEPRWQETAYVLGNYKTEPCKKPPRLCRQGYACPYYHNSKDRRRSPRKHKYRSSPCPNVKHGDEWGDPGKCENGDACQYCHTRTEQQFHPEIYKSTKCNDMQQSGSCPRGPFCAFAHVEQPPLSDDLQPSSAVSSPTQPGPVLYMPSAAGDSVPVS
Method: RNA Bind-n-Seq
Form: RNA
Sample: in vitro
Tested at: 100 nM
Notes: RNA with constant flanks, vertebrate orthologous sites, ends assumed
Reference: input RNA pool
Direction: higher = stronger binding
Constant ends, left off below: GGGAGUUCUACAGUCCGACGAUC … CAACAGAGGAUUGAGCAUCA
Strand	bound/input enrichment
AUUUAAAAUGUAGUUAGUUAUAUUUAAUGACCUCAUUCCUAAGUUCCUUUUUCGUUAAUGUAGCUUUCAUUUCUGUUAUUGCUGUUUGAAUAAUAUGAUUAAAUAGAAGGUUUGUGCCAG	0.572 ratio
ACCUCAACUUGUUCUAGCUUGCAAUCCUUCAAAGUUGGAUCAUGCAUUAAUGCUAGGUAUUAGGAAUUUUUACUUCUCUCUCUCCACUGAUCAGAGAAACAGACAUUAACAACAGAAGUA	0.835 ratio
UCCUUUCACACUGUCCCCAACAGAGCUGAUAAACUUAGUUCUUUCACUGAAGACUCGCAACUGAGACAAUUUUUUAAAUUGCUAUACAAAGAGAGAUGUGACUAAAACACAAUCUCAAAA	0.408 ratio
AGUCAUGGAGAAGAAGAUACUAAAAAUAAUCUCAUGGCAUUGAUAUUAAUUUAUUUUUAUUAGUUUUCAAAAGUCAGGGUUCUUGUUUAUAAACAGCAGGUACUGACUCUUAAGGCAAAA	0.441 ratio
AAAUUUAUUUCAUGCCCUGGACUCCUUAUCGUACCGAUACUUUAAUAGAAUAUGCUUCUUUAGAAGAUUUCCAAAGCAGUCGCCAAACAACAACAUAUAAACUUCCAAAUCGAGUAGAUG	1.27 ratio
UAUCUUUAGGAUGAAGCUCUUACAUCAGGUGUCACAAGUCUGGAGAACAGAUGGGUUGACUAGUUGUAUUUAUAAAUUACUCUCUGUGGAUUAUAAUCCUUUAUAUACCAACAUCACGGU	0.539 ratio
UGUAGUUUGUUUUUUAAUUUCAAGCAAAAUCUUAUUGUACUUGAAUGUGCCCUGUUUUGUUAGCACACCUAGACUUGCUGUAACUGUACUCAUGUCCCAGUAUGUACGUUCUUUCUAUGA	0.715 ratio
GCCCCAGUGUGUGUGUGCAUUACAUUCCUCUCUGUUCUGCUGAAGGGAAAAAAGAGACAUUUUAACCUUUUUAAGGUUAUUGACUUAAUUUUAUGUUAUUUGGUUGCAUGAAGUUGCCCU	0.533 ratio
CAGUAGAAUUACACUAAUACUGAAGUUAAAAGGAUAUCCAAGGUGAUGAUAAAGUGUGUGUUGGUAGUUACUAAAAAAACUUUAGCUGUUAUUGCCUUGUAUUUCUAUCCCUUGUUUCAG	0.321 ratio
AUUUUUACAAUCUCAAGCAGGUAUUUACGUACCACGAUAAGCCUUCAUUUGACAUAUUUACAGCUUUUCUAUUUUCCAGAUGAGAGAAAAGAAUUCCAUGCUUAGAGUUAAAUGUGGUCU	0.517 ratio
AUUCAAACCUGUGGUGCCAUGGCCUCAUGUCGAAGGAGUAGAAGUGGACUUAGAGUCUAUUAGAAGAAAAAACAAGGCCAAAAAUGAACAAGAGCGCCAUGCUGGAGGAGAGAACCAGAA	0.469 ratio

Study 2
Target: Centromere-binding protein 1, full length, His-tagged (CBF1, Saccharomyces cerevisiae, UniProt P17106, residues 1-351)
UniProt P17106, sequence (whole entry, looked up): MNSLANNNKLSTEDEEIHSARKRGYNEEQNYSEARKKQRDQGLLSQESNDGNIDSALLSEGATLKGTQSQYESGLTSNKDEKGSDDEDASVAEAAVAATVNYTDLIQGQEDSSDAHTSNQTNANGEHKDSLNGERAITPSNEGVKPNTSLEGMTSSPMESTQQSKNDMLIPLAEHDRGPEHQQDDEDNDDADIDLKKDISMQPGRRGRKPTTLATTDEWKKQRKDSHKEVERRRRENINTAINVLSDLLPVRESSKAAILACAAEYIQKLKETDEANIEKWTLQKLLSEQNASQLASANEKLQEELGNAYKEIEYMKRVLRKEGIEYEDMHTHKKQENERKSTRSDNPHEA
Method: competition protein-binding microarray
Form: double-stranded DNA, one strand shown
Sample: in vitro
Tested at: 2 µM
Notes: whole 60-bp probe, lowest competitor level
With: Pho4 competitor, 0.05 µM
Direction: higher = stronger binding
Constant ends, left off below: … GTCTTGATTCGCTTGACGCTGCTG
Strand	fluorescence intensity
TGGACATTTAAAGTAACAGTTAATTGAGAATACGGT	89.3 a.u.
AAATTACTAAGTTGCAGTGTGGGTGACGCCGTATGA	69.8 a.u.
CTTCTGTAAATTTGTCACCTGACTTGACGCGCCCCG	1600 a.u.
ACCATCACAATTCGTCACGTGCAAATTAGTCCAGTC	7430 a.u.
TCCTGAATCAATAAGAAGGTGATGGGGTAGTTCGTC	75.9 a.u.
CGTCCTAGTGATTTTCACGTGTGGTCCATGAGGAAG	627 a.u.
GCGCCGGGCGCTGGCCACGTGCAGGTAGGAGCGCGG	935 a.u.
TCGGAAATTACATGGTGCGTGCTGTGGCTTTTTGTG	84 a.u.
CTAACGAAGGTTTGGTTCGTGGGTGACAAGCCAAGT	56.2 a.u.
CTAACGAAGGTTTGGTGTGTGGGTGACAAGCCAAGT	74.4 a.u.
TTCAGAAGGTGGAGACACATGAAATTGACAGGTCTT	84.5 a.u.
AAAGCGGTAATTTGGCGGGTGGGTGCAGATATCTAT	74.1 a.u.
GGTTCTCAAAGCAGCAACGTGCTTTCTGCCACCGTT	120 a.u.
CGGGGTTAAGTTTTTCACGTGTCGTGCGATCAGCAG	709 a.u.
AAAGCGGTAATTTGTGAGGTGGGTGCAGATATCTAT	67.8 a.u.
ATAGAAGTTTTTTTATCCTCTCTTTGTTTCCATTAT	89.6 a.u.
CGTCCTAGTGATTGGCATGTGGGTGCCATGAGGAAG	99.9 a.u.
AATTACTGGTTCACACTCGTGGGTACCAAACGATTC	87.9 a.u.
AAATTACTAAGTTTTCACGTGATATACCCCGTATGA	4390 a.u.

Study 3
Target: Hepatocyte nuclear factor 3-alpha (Foxa1, Mus musculus, UniProt P35582, residues 1-468, full length assumed)
UniProt P35582, sequence (whole entry, looked up): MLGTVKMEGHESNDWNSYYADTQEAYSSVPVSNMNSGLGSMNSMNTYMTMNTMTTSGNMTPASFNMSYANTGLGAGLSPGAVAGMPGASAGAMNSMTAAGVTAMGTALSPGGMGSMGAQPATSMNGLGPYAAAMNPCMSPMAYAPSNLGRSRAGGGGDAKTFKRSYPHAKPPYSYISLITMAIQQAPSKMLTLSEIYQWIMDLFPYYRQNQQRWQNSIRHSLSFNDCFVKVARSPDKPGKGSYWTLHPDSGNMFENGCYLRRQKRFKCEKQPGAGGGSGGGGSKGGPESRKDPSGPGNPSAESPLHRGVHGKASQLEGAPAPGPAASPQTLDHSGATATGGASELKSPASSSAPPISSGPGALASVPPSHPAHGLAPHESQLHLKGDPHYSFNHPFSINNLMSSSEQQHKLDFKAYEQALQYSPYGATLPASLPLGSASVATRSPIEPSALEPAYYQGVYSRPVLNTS
Method: EMSA with sequencing
Form: double-stranded DNA, one strand shown
Sample: in vitro
Tested at: 10 and 20 nM
Notes: whole designed probe, mean of two concentrations, ends assumed
Reference: negative control set to 0
Direction: higher = stronger binding
Constant ends, left off below: GTGAGCGGTGCCCATTGATGGGGAAC … TTTCACTGGGATCGTGGGGAC
Strand	normalised bound fraction
TGGAAATAAATATTATGATAGCATCCTTGTTTCCATGGAAACATCGCTATCAGTATACCTCTGAATATGCATTTGCCTTTGTTTCTCTGGCTAAGTAAACAAGCATAAATCCATACTACTTGTTTTCTTTATAAGTTTTATCTGAGATCCAGAATAAGCCAACAGCAAGAGAGCAATGAGTGCAATTTTGTAC	0.494 ratio
AGTGATACTTAATGTATACTGATTAATGGAACATGTTGCAAAATAATTGACATTACTCGGCCAATCTTGTTCGCTAAGTAAAGAAAATAGTGCTTGTTTACATTATCTTTAACAGCACTCTTAAAGATTTTAGCTAGAAGTTTGGGATAAATTTGACACATTATGAAATTGTTAATATGCAATAAAGGTATAT	0.31 ratio
ATGATCCAATTAAAAACAAAACAACAGCAACAACAAAAAAACAGACCTGGAAAACTTACTACACAGGCTCTGTGTAGTACGACAGAAAAGAAAAGTAATCTAGAATTTTTTAAAGGCATATAGGACTAGATATATGTAATTTGTTTTCTGAAATCCAACTCTTTCTTGTCCCTTTAGAAACATCTTCTCTATC	-0.00191 ratio
CTTGGGAGGGTATCGCTTTAGTCTTGCCCACATGGCTTGGAACAGGTTATTCTGTAGCATGCCAAGGACCTCAGGGCGGGGCCCTTTATGGATGTTTATTTTGGCTTGGGTACCCTTTGTGTCTAATGCAAGGTTCCTGCTCCTCTCATGCCCCCAGTGCGGGATGGAGGTAGGCACCTATTCACAGACTCTC	0.238 ratio
TTTACATGATAAATCGTAATTGCTCTCAGACAGCTGTTTATAATTGGGTAAATGAGACACACTTTTAAATTGTCTAAATACATACTTACCCATGTTTACATATTTATACACTAGACTAACTATTCTCAATCAGCTGTTATCATCTATTGTGTCTTATACAGATCAAGGGAAAAGAACTTCGGAGTATAAACAG	0.308 ratio
CCCTACAATGGCTGGAATATGGAGTGAAATGCCAGGGTGGTCCCTACTAAGTGCATGGACATGGTAGGTTAACTGCTTTTTTTCTAGGAGCTGAGTAATCTGAGAGGGTCACACAGAAAAACATTTGTTTCTGTTTTGATCATGCCCTTTTAAGGTGCATGTTATACAGATCAAGATTCCAACTGCTACGAGT	-0.0654 ratio

Study 4
Target: RNA binding protein fox-1 homolog 2, RRM domain, GST-SBP tag (RBFOX2, Homo sapiens, UniProt O43251-10, residues 100-194)
Method: RNA Bind-n-Seq
Form: RNA
Sample: in vitro
Tested at: 365 nM
Notes: natural RNA segment, single round, ends assumed
Reference: no-protein control
Direction: higher = stronger binding
Constant ends, left off below: GGGAGUUCUACAGUCCGACGAUC … UGGAAUUCUCGGGUGCCAA
Construct (chain): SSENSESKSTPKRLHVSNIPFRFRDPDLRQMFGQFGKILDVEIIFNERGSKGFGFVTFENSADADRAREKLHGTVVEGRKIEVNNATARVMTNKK
Strand	RBNS enrichment (R)
UCUGAGUGAAGGGCGUACACUGGCACCUGGUGUUGCCUAGAUCCCCCAUCUCCUCCUUCCAGCCAGGUCUGGAAGUUUCAACAGCCCAAGCUUAACUUCAUGUAAAGUCU	0.249
AUGCACACGUAUGUUUAUUGUGGCAUUAUUCACAAUAGCAAAGACUUGGAACCAACCCAAAUGUCCAACAAUGAUAGACUGGAUUAAGAAAACGUGGCACAUAUACACCA	0.899
AAGGGCUCAGGAAGUUGCUCCAAGAACAGUAGCUGAUGAAGCUGCCCAGAAGUGCCUUGGCUCCAGCCCUGUACCCCUUGGUACUGCCUCUGAACACUCUGGUUUCCCCA	0.27
GACCUGUUGCUGCAUAGAACUCUCCCUGCCCUACCCCUUAACUCCACCUUAGUGCCAGGGCCGAGGGCUGGUCUGCAUGCUGGAAGAGGUUGAGAGUUUUGGAAUUGAUU	58.7
UGUGCCCCACCCCUGGACAUAUACUGCUAAGGACAUCUCAAUACUAGACUCAGUCAGGAGUGGUGGUGACACUUGUAAUCCUAGACAGGCAAAAGGGUCACCAGAGGCUU	0.37
UCCACCUGUGUUGCUUUUGUAACUUGAUAUUUAUGCAGGGUUUUGUAGUUUUUAUUAUGUAGUGACUUUUCAGAAUAAAAGCAGCUGAUGUGACUGACUGCAUCCGACUC	1.05
UUAUUUAAUUCAUUAAUGAAAGAGAGUGCUCUCUUUAAUGCAGCUUUGGGUAGACAGUCUAAUUCAGUCCAAUUUUAAUCUGCAUUAAAAUAUGCAAUGCUAGACAAAGA	0.316
GGGAGGCAGUCUUGUCACCUCCCAUCCAACAGUUCACAAACGGCUCAGUUCCUUCAUUCAGAUGGUUGGGUACGUGCUUGUGGCUGAGGAAGGGCGGGUGGUGUGGACAG	0.861
AGAUUGCUAGGUAGAUAGACACACACACAUGCACACACACACAUCUGGAGAUGGCAAAAUCCUCUAAAAUGUCGAGGUCUCUUGAAGACUUGAGAAGCUGUCACAAGGUC	1.52
CCACGUUUUGCCUUUCUCCUGCCCCAAAUCAGGCAGCUCCCUUGGAGCAGGGUUUCCUCAGAUGAGGACUGCAUUCUUUGAAAACAAAGAAUGUCGCCAAGGAAGAAACC	0.25
CGUCGAGUGCCAUCUUAUUUAUUUCUGGUUAAGAUGGGGCGGAGGAUGGGGGGGACGCUGCUGGUAUUCGGGUUGGGCGUUUCCCAAUAAACCACCAAUCUUCAUAUUGU	0.399
UGUUUUGUUUGUUUGUUUGUUUGUGUUUUUGUUCUUUUGAAGAAUAGAGUGGUAUUUAGAAAAUAAAUUGCAUUGCAAAGCUCUUAUCGGCUCAUAUGAGAGAGCAGGUU	1.65

For quick reference, copied from above (study 3):
Strand	normalised bound fraction
TGGAAATAAATATTATGATAGCATCCTTGTTTCCATGGAAACATCGCTATCAGTATACCTCTGAATATGCATTTGCCTTTGTTTCTCTGGCTAAGTAAACAAGCATAAATCCATACTACTTGTTTTCTTTATAAGTTTTATCTGAGATCCAGAATAAGCCAACAGCAAGAGAGCAATGAGTGCAATTTTGTAC	0.494 ratio
AGTGATACTTAATGTATACTGATTAATGGAACATGTTGCAAAATAATTGACATTACTCGGCCAATCTTGTTCGCTAAGTAAAGAAAATAGTGCTTGTTTACATTATCTTTAACAGCACTCTTAAAGATTTTAGCTAGAAGTTTGGGATAAATTTGACACATTATGAAATTGTTAATATGCAATAAAGGTATAT	0.31 ratio
ATGATCCAATTAAAAACAAAACAACAGCAACAACAAAAAAACAGACCTGGAAAACTTACTACACAGGCTCTGTGTAGTACGACAGAAAAGAAAAGTAATCTAGAATTTTTTAAAGGCATATAGGACTAGATATATGTAATTTGTTTTCTGAAATCCAACTCTTTCTTGTCCCTTTAGAAACATCTTCTCTATC	-0.00191 ratio
CTTGGGAGGGTATCGCTTTAGTCTTGCCCACATGGCTTGGAACAGGTTATTCTGTAGCATGCCAAGGACCTCAGGGCGGGGCCCTTTATGGATGTTTATTTTGGCTTGGGTACCCTTTGTGTCTAATGCAAGGTTCCTGCTCCTCTCATGCCCCCAGTGCGGGATGGAGGTAGGCACCTATTCACAGACTCTC	0.238 ratio
TTTACATGATAAATCGTAATTGCTCTCAGACAGCTGTTTATAATTGGGTAAATGAGACACACTTTTAAATTGTCTAAATACATACTTACCCATGTTTACATATTTATACACTAGACTAACTATTCTCAATCAGCTGTTATCATCTATTGTGTCTTATACAGATCAAGGGAAAAGAACTTCGGAGTATAAACAG	0.308 ratio
CCCTACAATGGCTGGAATATGGAGTGAAATGCCAGGGTGGTCCCTACTAAGTGCATGGACATGGTAGGTTAACTGCTTTTTTTCTAGGAGCTGAGTAATCTGAGAGGGTCACACAGAAAAACATTTGTTTCTGTTTTGATCATGCCCTTTTAAGGTGCATGTTATACAGATCAAGATTCCAACTGCTACGAGT	-0.0654 ratio
